Results of several laboratories.
Each numbered part is a random draw from the data of one study; scales do not carry over between parts. Changes are numbered by the printed parent chain.

Series 1 — target: CCND2, cyclin fold, Cln2 fusion (human); method: yeast growth competition, sequencing; matrix: yeast; notes: strong parent motif; reference: not given; reading: higher = stronger binding
Parent: PKN2 docking peptide (human); VSAVRKLDFSDTM; partner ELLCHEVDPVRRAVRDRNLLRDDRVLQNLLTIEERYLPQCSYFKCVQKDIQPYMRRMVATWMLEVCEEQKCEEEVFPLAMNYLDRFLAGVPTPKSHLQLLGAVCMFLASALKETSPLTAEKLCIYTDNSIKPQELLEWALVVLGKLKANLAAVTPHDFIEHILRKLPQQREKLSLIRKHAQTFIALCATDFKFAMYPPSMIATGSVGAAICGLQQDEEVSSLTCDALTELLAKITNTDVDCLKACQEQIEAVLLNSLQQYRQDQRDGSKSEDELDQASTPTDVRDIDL
| Change | normalised enrichment score |
| --- | --- |
| A3L | 0.364 |
| D11R | 2.88 |
| R5A | 0.685 |
| L7A | 0.284 |

Series 2 — method: protein binding microarray; molecule type: double-stranded DNA, one strand shown; matrix: in vitro; concentration: not given; reference: not given; reading: higher = stronger binding
Target: Histone acetyltransferase KAT6A, winged helix 1, GST fusion (KAT6A, Homo sapiens, UniProt Q92794, residues 1-85)
Notes: 8-mer, flanks averaged, mean of 2 arrays, mostly near background
Target sequence (chain): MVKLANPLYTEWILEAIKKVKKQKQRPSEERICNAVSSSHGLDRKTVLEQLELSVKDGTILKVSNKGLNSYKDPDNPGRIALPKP
| Sequence | E-score |
| --- | --- |
| TAATTCTA | -0.166 |
| GCGCGGCA | 0.449 |
| CAACCTAC | -0.0867 |
| ATTCCGCC | 0.199 |
| GCTAGAAA | -0.0365 |
| ACGGATAT | 0.0792 |
| AGCAACCC | 0.051 |
| GACCCCCA | -0.229 |
| ATGTATTC | -0.0168 |

Series 3 — method: universal PBM; molecule type: double-stranded DNA, one strand shown; matrix: in vitro; concentration: not given; reading: higher = stronger binding
Target: Sal-like protein 4, full length isoform B (SALL4, Homo sapiens, UniProt Q9UJQ4-2, residues 1-616)
Notes: 8-mer, flanks averaged, mean of replicates
Target sequence (chain): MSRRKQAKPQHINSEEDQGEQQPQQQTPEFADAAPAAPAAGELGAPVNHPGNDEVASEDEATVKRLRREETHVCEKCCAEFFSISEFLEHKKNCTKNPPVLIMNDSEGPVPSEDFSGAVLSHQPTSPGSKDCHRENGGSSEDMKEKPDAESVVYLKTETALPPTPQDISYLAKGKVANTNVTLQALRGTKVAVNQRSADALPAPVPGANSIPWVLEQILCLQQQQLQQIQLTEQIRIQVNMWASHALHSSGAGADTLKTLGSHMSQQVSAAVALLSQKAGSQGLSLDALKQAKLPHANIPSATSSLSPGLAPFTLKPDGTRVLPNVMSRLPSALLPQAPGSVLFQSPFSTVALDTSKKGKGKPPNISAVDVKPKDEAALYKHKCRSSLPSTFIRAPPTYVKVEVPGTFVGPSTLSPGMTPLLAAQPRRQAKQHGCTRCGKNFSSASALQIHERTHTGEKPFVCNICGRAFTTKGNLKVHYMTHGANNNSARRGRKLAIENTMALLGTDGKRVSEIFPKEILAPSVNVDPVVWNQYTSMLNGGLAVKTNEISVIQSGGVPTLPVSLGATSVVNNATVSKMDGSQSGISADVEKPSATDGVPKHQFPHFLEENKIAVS
| Sequence | E-score |
| --- | --- |
| AATCGTGT | 0.115 |
| CGGCATTA | 0.0131 |
| ACCATCTC | -0.00679 |
| ATCGATCA | 0.0338 |
| GCGGAAGC | -0.266 |

Other studies, line by line
| Molecule | target | test | system | setting | how to read | measurement | result |
| --- | --- | --- | --- | --- | --- | --- | --- |
| PhoQ, residues 284 288 289 292 302 303 TLSLKA | PhoP, residues 12 14 15 18 19 LHHVQ (Escherichia coli, UniProt P23836) | Sort-seq, measured: YFP reporter | E. coli | PhoQ-PhoP variant library, added: 10 µM Mg2+ | reference: high Mg2+ state, higher = stronger signaling | fold induction | 0.898 |
